Measured values of several laboratories.
Parts stem from different laboratories: compare values within a part only.
UniProt P09769, sequence (whole entry, looked up): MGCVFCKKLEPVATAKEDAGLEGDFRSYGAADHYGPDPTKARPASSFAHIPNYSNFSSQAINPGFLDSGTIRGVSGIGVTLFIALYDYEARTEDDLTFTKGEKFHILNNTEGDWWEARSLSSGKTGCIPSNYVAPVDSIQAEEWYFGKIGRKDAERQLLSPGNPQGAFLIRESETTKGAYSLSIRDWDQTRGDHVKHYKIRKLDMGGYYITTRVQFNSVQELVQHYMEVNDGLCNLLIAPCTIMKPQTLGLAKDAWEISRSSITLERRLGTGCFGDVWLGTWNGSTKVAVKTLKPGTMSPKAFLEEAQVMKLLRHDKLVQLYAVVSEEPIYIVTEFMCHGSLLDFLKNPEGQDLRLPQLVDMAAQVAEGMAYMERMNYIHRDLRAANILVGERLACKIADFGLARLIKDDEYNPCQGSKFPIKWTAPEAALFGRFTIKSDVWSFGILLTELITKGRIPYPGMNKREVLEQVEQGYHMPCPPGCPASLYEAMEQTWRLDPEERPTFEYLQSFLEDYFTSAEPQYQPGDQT
UniProt Q9P2K8, sequence (whole entry, unmodified, looked up): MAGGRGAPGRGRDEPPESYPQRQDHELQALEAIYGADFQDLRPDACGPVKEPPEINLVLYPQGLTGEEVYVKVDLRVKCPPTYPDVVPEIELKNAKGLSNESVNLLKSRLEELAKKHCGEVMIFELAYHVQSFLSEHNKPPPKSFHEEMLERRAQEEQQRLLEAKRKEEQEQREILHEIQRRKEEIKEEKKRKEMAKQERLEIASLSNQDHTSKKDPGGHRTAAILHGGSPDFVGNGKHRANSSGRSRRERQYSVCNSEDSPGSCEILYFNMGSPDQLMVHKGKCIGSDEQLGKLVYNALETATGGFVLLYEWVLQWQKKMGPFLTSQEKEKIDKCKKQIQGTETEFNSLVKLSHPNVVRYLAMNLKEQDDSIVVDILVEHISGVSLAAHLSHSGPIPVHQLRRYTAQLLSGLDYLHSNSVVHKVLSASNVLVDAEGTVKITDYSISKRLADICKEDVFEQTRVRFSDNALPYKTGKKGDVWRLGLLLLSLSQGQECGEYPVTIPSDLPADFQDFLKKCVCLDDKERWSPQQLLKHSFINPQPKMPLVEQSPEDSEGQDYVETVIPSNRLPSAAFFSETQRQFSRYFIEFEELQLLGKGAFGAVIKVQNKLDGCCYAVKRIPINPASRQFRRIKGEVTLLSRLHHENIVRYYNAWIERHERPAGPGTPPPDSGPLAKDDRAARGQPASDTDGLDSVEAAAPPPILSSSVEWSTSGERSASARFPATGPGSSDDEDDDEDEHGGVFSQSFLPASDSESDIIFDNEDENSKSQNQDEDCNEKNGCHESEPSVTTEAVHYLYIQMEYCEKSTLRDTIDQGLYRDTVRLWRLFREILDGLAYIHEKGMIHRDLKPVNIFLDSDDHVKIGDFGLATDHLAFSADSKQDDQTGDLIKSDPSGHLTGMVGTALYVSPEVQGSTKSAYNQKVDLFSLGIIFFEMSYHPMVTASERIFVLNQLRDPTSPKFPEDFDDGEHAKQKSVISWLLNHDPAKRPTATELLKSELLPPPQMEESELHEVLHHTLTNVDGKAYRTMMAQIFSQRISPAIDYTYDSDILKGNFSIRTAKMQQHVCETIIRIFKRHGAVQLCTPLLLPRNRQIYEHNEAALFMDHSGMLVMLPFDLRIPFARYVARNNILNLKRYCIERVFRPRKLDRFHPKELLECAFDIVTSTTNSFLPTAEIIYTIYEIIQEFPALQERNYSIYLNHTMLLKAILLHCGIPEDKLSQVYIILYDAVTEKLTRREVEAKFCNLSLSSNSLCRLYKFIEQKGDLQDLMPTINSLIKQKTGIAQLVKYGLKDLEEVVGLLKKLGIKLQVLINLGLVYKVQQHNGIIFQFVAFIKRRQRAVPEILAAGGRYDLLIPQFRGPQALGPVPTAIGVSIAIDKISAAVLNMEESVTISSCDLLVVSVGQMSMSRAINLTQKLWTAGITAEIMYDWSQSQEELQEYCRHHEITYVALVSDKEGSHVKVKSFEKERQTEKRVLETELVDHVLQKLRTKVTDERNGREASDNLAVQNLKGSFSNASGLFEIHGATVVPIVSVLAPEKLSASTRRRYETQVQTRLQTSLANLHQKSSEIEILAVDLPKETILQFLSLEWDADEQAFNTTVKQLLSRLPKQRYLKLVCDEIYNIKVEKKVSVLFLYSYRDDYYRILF
UniProt P41743, sequence (whole entry, looked up): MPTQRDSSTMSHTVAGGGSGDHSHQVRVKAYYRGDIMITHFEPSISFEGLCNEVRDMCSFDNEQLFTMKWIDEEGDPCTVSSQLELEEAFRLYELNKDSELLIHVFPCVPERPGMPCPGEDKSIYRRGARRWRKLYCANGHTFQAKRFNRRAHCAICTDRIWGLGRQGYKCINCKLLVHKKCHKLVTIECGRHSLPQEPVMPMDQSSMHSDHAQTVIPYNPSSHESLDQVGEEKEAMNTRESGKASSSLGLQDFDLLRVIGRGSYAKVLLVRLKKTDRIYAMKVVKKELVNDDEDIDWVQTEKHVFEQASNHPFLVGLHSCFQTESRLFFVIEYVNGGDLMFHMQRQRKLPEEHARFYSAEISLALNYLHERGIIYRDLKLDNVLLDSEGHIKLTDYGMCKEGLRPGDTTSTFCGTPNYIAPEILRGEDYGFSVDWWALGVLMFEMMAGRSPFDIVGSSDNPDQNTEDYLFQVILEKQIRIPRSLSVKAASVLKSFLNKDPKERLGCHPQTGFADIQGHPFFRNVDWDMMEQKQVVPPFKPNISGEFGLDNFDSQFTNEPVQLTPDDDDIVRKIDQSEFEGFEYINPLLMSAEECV
UniProt Q15746, sequence (whole entry, looked up): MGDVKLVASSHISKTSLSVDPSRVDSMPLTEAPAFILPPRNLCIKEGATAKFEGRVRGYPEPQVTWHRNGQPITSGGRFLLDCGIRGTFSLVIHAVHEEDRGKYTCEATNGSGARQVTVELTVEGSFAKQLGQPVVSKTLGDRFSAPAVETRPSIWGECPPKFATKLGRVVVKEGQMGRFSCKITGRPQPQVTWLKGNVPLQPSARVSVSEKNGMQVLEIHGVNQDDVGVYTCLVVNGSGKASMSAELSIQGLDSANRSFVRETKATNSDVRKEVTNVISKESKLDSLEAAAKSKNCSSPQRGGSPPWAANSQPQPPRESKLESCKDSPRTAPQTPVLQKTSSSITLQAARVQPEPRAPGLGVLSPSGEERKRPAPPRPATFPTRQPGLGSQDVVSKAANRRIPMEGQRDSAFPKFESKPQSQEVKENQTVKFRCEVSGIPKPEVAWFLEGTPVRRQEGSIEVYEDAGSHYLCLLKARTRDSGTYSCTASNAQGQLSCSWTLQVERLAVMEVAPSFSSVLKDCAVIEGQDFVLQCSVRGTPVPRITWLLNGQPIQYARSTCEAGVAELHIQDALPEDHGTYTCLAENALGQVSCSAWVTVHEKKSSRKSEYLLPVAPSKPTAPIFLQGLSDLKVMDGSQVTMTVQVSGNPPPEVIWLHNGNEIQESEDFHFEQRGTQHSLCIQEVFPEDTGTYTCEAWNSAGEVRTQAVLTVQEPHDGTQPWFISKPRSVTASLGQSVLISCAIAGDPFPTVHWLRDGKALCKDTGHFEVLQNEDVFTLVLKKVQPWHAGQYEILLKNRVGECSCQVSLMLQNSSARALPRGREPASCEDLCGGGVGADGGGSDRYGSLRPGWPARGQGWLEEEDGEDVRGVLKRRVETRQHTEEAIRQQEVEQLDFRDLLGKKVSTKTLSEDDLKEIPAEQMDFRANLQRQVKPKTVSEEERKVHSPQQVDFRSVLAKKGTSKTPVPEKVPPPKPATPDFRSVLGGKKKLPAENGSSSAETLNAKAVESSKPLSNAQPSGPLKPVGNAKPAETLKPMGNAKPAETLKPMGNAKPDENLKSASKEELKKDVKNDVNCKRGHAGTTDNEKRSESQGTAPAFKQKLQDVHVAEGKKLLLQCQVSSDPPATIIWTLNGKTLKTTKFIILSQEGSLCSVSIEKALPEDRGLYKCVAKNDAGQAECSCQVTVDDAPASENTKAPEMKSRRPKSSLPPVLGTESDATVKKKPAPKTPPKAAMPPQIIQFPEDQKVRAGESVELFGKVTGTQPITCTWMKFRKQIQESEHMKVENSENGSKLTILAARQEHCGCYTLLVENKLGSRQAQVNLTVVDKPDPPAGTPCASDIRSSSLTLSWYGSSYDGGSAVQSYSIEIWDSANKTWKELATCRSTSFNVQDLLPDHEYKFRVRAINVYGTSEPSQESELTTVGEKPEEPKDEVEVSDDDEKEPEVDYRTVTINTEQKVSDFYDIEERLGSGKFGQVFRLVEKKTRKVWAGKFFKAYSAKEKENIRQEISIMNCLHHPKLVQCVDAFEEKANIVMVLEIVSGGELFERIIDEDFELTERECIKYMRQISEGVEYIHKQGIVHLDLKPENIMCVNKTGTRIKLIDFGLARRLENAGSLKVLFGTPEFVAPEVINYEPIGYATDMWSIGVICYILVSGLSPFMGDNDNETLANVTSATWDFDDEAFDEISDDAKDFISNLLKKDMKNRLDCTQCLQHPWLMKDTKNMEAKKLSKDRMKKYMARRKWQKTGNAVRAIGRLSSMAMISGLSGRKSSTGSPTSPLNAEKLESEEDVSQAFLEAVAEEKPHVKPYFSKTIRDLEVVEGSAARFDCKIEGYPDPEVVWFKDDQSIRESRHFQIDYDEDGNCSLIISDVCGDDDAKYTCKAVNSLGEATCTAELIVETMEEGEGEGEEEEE
UniProt Q8TBX8, sequence (whole entry, looked up): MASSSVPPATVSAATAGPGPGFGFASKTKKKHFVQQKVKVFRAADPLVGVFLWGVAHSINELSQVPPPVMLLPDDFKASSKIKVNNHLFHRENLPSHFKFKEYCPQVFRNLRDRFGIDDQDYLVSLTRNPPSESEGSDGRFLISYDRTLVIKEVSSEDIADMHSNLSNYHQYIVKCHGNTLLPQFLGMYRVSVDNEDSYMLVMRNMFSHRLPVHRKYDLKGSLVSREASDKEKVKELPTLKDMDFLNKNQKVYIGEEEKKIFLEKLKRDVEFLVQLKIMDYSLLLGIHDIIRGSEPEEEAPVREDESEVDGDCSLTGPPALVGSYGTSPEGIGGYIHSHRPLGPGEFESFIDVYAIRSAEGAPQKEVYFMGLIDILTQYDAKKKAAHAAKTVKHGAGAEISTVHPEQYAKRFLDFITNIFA

Study 1 — target: His6 tag; technique: AlphaScreen counter screen; concentration: concentration not given
Structure (SMILES) | inhibition [%]
O=c1[nH]cnc2cccc(Cl)c12 | 3.1
O=C(Nc1cccnc1)c1n[nH]c2ccccc12 | 5.2
Oc1c2ccccc2c2c3c(cccc13)N=N2 | 6.4
O=C(NC1CCCC1)c1n[nH]c2ccccc12 | 4.55
C#Cc1cccc(Nc2ncnc3cc(OCCOC)c(OCCOC)cc23)c1 | 0.6

Study 2 — cell line: HaCaT; concentration: 100 µM; time: 36 h
Compound | viability
CCN(CC)CCOc1ccc2c(c1)C(=O)c1cc(OCCN(CC)CC)ccc1-2 | 4.77%
CN(C)CCn1nnnc1SCC1=C(C(=O)O)N2C(=O)[C@@H](NC(=O)Cc3csc(N)n3)[C@H]2SC1 | 112%
Oc1cc(O)cc(/C=C/c2ccc(O)c(O)c2)c1 | 97.8%
CNS(=O)(=O)Cc1ccc2[nH]cc(CCN(C)C)c2c1 | 58.5%

Study 3 — cell line: Huh-7; concentration: 10 µM; time: 24 h
SMILES | viability [%]
CCCC(C(=O)OCCN(CC)CC)(c1ccccc1)c1ccccc1 | 96.9
c1ccc2c(CC3=NCCN3)cccc2c1 | 97.4
CC(=O)c1ccc(S(=O)(=O)NC(=O)NC2CCCCC2)cc1 | 75.7
C1CCC(C(CC2CCCCN2)C2CCCCC2)CC1 (centres unmarked) | 79.9
Cc1cccc(N(C)C(=S)Oc2ccc3ccccc3c2)c1 | 90.4

Study 4 — Compound: CSc1cccnc1N1CCN(Cc2nc3ccccc3[nH]2)CC1; technique: competition with immobilised ligand; concentration: 1 µM
target | assay | remaining binding [%]
KIT (Homo sapiens, UniProt P10721, V559D) | cell-free assay | 96
DCLK1 (Homo sapiens, UniProt O15075) | cell-free assay | 82
PIP4K2C (Homo sapiens, UniProt Q8TBX8) | cell-free assay | 81
TRPM6 (Homo sapiens, UniProt Q9BX84) | cell-free assay | 100
FGR (Homo sapiens, UniProt P09769) | cell-free assay | 100
WNK1 (Homo sapiens, UniProt Q9H4A3) | cell-free assay | 100
NEK2 (Homo sapiens, UniProt P51955) | cell-free assay | 96
HIPK4 (Homo sapiens, UniProt Q8NE63) | cell-free assay | 100
PIP5K1C (Homo sapiens, UniProt O60331) | cell-free assay | 100
MUSK (Homo sapiens, UniProt O15146) | cell-free assay | 100
Tyrosine-protein kinase ABL1, phosphorylated (ABL1, Homo sapiens, UniProt P00519, E255K) | cell-free assay | 67
CHEK2 (Homo sapiens, UniProt O96017) | cell-free assay | 96
MAPK8 (Homo sapiens, UniProt P45983) | cell-free assay | 77
MAP3K12 (Homo sapiens, UniProt Q12852) | cell-free assay | 74
PIK3CA (Homo sapiens, UniProt P42336, I800L) | cell-free assay | 77
CDKL5 (Homo sapiens, UniProt O76039) | binding | 76
PRKCQ (Homo sapiens, UniProt Q04759) | cell-free assay | 100
PRKCI (Homo sapiens, UniProt P41743) | cell-free assay | 100
SLK (Homo sapiens, UniProt Q9H2G2) | cell-free assay | 100
STK32B (Homo sapiens, UniProt Q9NY57) | cell-free assay | 100
eIF-2-alpha kinase GCN2, C-terminal kinase domain (EIF2AK4, Homo sapiens, UniProt Q9P2K8, S808G) | cell-free assay | 100
Tyrosine-protein kinase ABL1, phosphorylated (ABL1, Homo sapiens, UniProt P00519, H396P) | cell-free assay | 77
TESK1 (Homo sapiens, UniProt Q15569) | cell-free assay | 100
MYLK (Homo sapiens, UniProt Q15746) | binding | 94
PRKAA1 (Homo sapiens, UniProt Q13131) | cell-free assay | 83

Study 5 — cell line: mouse MPNST tumor cells; technique: high-content nuclear imaging; item: cell number; concentration: 10 µM; time: 12 h; notes: mean of 2 replicates; reference: plate mean; direction: higher = more cells
Compound | nuclei count [z-score]
Nc1ccc(-c2cccc3c(=O)cc(N4CCOCC4)oc23)cc1 | -0.183
Cc1cccc(NC(=O)CN2CCC(c3ccccn3)CC2)c1 | 0.799
Cc1cc(C)c(S(=O)(=O)n2cc(C)cc2C)c(C)c1 | 0.305
O=C(Nc1cccc2cccnc12)c1ccc(N2C(=O)[C@@H]3[C@H](C2=O)[C@@H]2C=C[C@H]3C2)cc1 | 1.25
Clc1ccc(COC(Cn2ccnc2)c2ccc(Cl)cc2Cl)cc1 (centres unmarked) | 2.04

Study 6 — host: mouse; matrix: microsomes or S9; concentration: 2 µM; time: 0.5 h
Structure (SMILES) | remaining compound
O=c1[nH]c2cc(-c3noc(-c4ccc(F)c(F)c4)n3)ccc2n1C1CCCC1 | 67.6%
Cn1cc(-c2ccc3nnc(C[C@H](O)CO)n3n2)cn1 | 84.5%
C[C@@H](c1cn(-c2cccc[n+]2[O-])c(=O)c2c(C(F)(F)F)cccc12)N1C(=O)c2ccccc2C1=O | 1.62%
Fc1ccc(-c2cc3nc4c(c(NCC5CCCO5)n3n2)CCCC4)cc1 (centres unmarked) | 2.61%
c1ccc(Oc2cccc(CNc3ccc4nnnn4n3)c2)cc1 | 0.0229%
O=C(NC1CCCc2ccccc21)c1ccc(CS(=O)(=O)c2ccc(Br)cc2)o1 (centres unmarked) | 22.9%

Excerpt of the above (study 4):
target | assay | remaining binding [%]
PIP4K2C (Homo sapiens, UniProt Q8TBX8) | cell-free assay | 81
TRPM6 (Homo sapiens, UniProt Q9BX84) | cell-free assay | 100
FGR (Homo sapiens, UniProt P09769) | cell-free assay | 100
